Assay results gathered from unrelated publications.
Compare with care: the assays were run in different laboratories. pIC50: −log10 of the molar value.
Cell line: HCT-116

SMILES | assay | conditions | scale | measurement | result
COC(=O)ON=C1C(=O)NN(c2ccccc2)C1=O | MTS | 1.6 to 25 µM, 48 h |  | cytotoxicity | not toxic
O=C(NCCCCCCCCNc1n[n+]([O-])c2ccccc2[n+]1[O-])C(F)(F)F |  |  | reference: normoxic IC50 over hypoxic IC50 | hypoxic cytotoxicity ratio | 2.2
CCCCCCCCCCCCCCCC(=O)NCCCC[C@H](NC(=O)[C@H](CCCNC(=N)N)NC(=O)[C@H](CCCCNC(=O)CCCCCCCCCCCCCCC)NC(C)=O)C(=O)O | cell proliferation | 100 µM, 24 h, 37 °C, serum-containing medium |  | inhibition | 3%
CCCCn1cc(C(=O)O)c(=O)c2cc(F)c(N)c([N+](=O)[O-])c21 | cell growth or viability, SRB |  |  | pIC50 | 3.52
CSc1nc(Nc2ccc(/C(C)=N/NC(=O)c3ccc([N+](=O)[O-])cc3[N+](=O)[O-])cc2)c(C#N)c(-c2ccccc2)n1 | annexin V-FITC | 1.14 µM, 24 h |  | viable cells | 78.6%
O=C(NCCCCCCNc1n[n+]([O-])c2ccccc2[n+]1[O-])C(F)(F)F |  |  | reference: normoxic IC50 over hypoxic IC50 | hypoxic cytotoxicity ratio | 1.7
CCCCn1cc(C(=O)O)c(=O)c2cc(F)c3[nH]nnc3c21 | cell growth or viability, SRB |  |  | pIC50 | 3.78
O=C(NCCNc1n[n+]([O-])c2ccccc2[n+]1[O-])C(F)(F)F |  |  | reference: normoxic IC50 over hypoxic IC50 | hypoxic cytotoxicity ratio | 1.3
N#Cc1c(NC(=O)CCl)sc2c1CCC(c1ccccc1)C2 (stereo not drawn) | cell growth or viability, LDH | 100 µg/mL, 24 h |  | viability | 65.5%
Cc1ccc(C)n1-c1ccc(C(=O)ON2C(=O)CCC2=O)cc1 | MTS | 1.6 to 25 µM, 48 h |  | cytotoxicity | not toxic
N#Cc1c(NC(=O)CN2CCOCC2)sc2c1CCC(c1ccccc1)C2 (stereo not drawn) | cell growth or viability, LDH | 100 µg/mL, 24 h |  | viability | 90.5%
O=C(NCCc1cccc(F)c1)[C@@H]1C[C@@H](Sc2nc3ccccc3[nH]2)CN1Cc1cccc(Cl)c1 | cell growth or viability, CCK-8 | 24 h |  | pIC50 | 4.82

Excerpt of the above:
SMILES | assay | conditions | scale | measurement | result
O=C(NCCCCCCCCNc1n[n+]([O-])c2ccccc2[n+]1[O-])C(F)(F)F |  |  | reference: normoxic IC50 over hypoxic IC50 | hypoxic cytotoxicity ratio | 2.2
